{"data": "Measurements of several laboratories", "note": "Each numbered part is a random draw from the data of one study; scales do not carry over between parts. Substitutions count along the parent as printed."}
{"data": "Set 1", "target": "Prothrombin, mature alpha-thrombin (F2, Homo sapiens, UniProt P00734)", "method": "aptamer microarray, sandwich", "molecule type": "DNA with 2'F-ANA", "sample": "in vitro", "concentration": "200 nM", "setting": "whole 15-mer aptamer, many near background", "with": "Cy3 exosite-II aptamer, 400 nM", "reading": "higher = stronger binding", "oligonucleotide": "GGTTGGTGTGGTTGG"}
{"Modification": "2'F-ANA at 2 3 4 6 7 9 10 14 15", "mean fluorescence intensity": "163 a.u."}
{"Modification": "2'F-ANA at 3 10 11 13 15", "mean fluorescence intensity": "508 a.u."}
{"Modification": "2'F-ANA at 1 2 3 4 5 7 8 9 13 14 15", "mean fluorescence intensity": "47.9 a.u."}
{"Modification": "2'F-ANA at 1 2 5 6 8 9 10 11 12 13 15", "mean fluorescence intensity": "54.6 a.u."}
{"Modification": "2'F-ANA at 1 2 7 8 10 12 15", "mean fluorescence intensity": "69.1 a.u."}
{"Modification": "2'F-ANA at 7 8 12 13 14 15", "mean fluorescence intensity": "293 a.u."}
{"Modification": "2'F-ANA at 3 4 5 12 13", "mean fluorescence intensity": "148 a.u."}
{"Modification": "2'F-ANA at 2 3 4 6 12 13", "mean fluorescence intensity": "598 a.u."}
{"data": "Set 2", "target": "Interferon regulatory factor 3, full length, phosphomimetic (IRF3, Homo sapiens, UniProt Q14653, residues 1-427, S386D/S396D/S398D/S402D/T404D/S405D)", "method": "protein-binding microarray", "molecule type": "double-stranded DNA, one strand shown", "sample": "in vitro", "concentration": "2540 nM top", "setting": "60-bp whole probe", "with": "salmon DNA 0.4 mg/ml", "relative to": "random background probes", "reading": "higher = stronger binding", "all sequences stand within": "GCCTAGCAC … GTCTTGATTCGCTTGACGCTGCTG", "Target sequence (chain)": "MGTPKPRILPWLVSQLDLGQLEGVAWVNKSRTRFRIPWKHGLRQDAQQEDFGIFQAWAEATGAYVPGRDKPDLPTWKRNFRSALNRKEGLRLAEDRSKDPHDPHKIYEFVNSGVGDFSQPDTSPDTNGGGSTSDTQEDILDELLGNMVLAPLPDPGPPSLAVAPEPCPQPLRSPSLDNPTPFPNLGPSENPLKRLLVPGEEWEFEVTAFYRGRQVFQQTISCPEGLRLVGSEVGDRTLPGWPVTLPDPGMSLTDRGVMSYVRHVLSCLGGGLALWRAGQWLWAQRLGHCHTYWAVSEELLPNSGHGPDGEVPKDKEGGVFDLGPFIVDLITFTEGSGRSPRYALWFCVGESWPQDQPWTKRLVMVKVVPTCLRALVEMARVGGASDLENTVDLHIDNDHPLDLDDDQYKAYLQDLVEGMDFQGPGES"}
{"Oligonucleotide": "CCCATTCTGAATTCGAATGCGTGCTAG", "fitted relative affinity [z-score]": 2.65}
{"Oligonucleotide": "TTAGGTATCGAGTATCGGTTAGTGCTA", "fitted relative affinity [z-score]": 1.38}
{"Oligonucleotide": "CTAGATTCCAGTTTCGATTAGTGCTAG", "fitted relative affinity [z-score]": 5.07}
{"Oligonucleotide": "GACGGACTGCTTATCTTGACGTGCTAG", "fitted relative affinity [z-score]": -0.334}
{"Oligonucleotide": "GACGGTTCCCTTTACCTGACGTGCTAG", "fitted relative affinity [z-score]": 4.86}
{"Oligonucleotide": "CCACTGCAAAAACATCCTGGGTGCTAG", "fitted relative affinity [z-score]": 0.437}
{"Oligonucleotide": "TTAGGTTTCCGGTATCGGTTAGTGCTA", "fitted relative affinity [z-score]": 4.34}
{"Oligonucleotide": "TCAGGTTTCGGGTTTCGGTTAGTGCTA", "fitted relative affinity [z-score]": 6.44}
{"data": "Set 3", "target": "Ras GTPase-activating protein-binding protein 1, full length (G3BP1, Homo sapiens, UniProt Q13283)", "method": "RNA Bind-n-Seq", "molecule type": "RNA", "sample": "in vitro", "concentration": "200 nM", "setting": "whole 134-nt RNA, ends assumed", "with": "150 mM LiCl", "relative to": "input library", "reading": "higher = stronger binding", "each molecule": "7-deaza-guanosine replaces G", "UniProt Q13283, sequence (whole entry, looked up)": "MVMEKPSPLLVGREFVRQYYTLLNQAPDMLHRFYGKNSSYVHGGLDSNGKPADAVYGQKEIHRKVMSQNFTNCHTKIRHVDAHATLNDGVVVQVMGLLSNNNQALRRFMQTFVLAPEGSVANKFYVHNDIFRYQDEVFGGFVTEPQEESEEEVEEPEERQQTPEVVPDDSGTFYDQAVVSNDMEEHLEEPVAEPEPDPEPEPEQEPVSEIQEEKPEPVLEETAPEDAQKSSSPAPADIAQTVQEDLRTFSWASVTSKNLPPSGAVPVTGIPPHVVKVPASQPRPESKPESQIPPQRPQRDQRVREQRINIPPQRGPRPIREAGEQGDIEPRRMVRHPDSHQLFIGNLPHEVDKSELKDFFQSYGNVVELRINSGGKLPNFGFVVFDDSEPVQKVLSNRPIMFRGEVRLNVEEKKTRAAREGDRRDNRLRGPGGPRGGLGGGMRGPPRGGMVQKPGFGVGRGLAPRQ"}
{"Oligonucleotide": "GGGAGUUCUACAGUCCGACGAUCCAAGUCCUGUGCUACACAUCGUAUGUACCGAAUCGGGGAAAGGAAAGGGAAAGGGAAAGUAUUAUGUUACGCCGUUCGGAUCUGCACUUCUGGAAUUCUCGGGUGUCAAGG", "log2 enrichment": -0.487}
{"Oligonucleotide": "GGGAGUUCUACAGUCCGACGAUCCACAGACAACACGCACCCACACAGACACAGAGGGAAGGGGUUGGGAUGGGGACAGGGUGCACAGCAAGGCGGGGUAGGACCCCAGCCCCUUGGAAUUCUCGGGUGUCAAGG", "log2 enrichment": 0.257}
{"Oligonucleotide": "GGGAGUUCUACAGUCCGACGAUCCACAGACAACACGCACCCACACAGACACAGAGGGAAGGGGUUGGGAUGGGGACAGGGUGCACAGCAGGGCGGGGUAGCACCCCAGCCCCUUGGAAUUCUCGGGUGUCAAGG", "log2 enrichment": 1.47}
{"Oligonucleotide": "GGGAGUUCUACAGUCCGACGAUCUCAAGUCCUGUGCUACACAUCGUAUGUACCGAAUCGGGCCGGGGCCGGGCCGGGAAAGUAUUAUGUUACGCCGUUCGGAUCUGCACUUCCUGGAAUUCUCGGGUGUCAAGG", "log2 enrichment": 0.441}
{"Oligonucleotide": "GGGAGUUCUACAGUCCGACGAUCUCAAGUCCUGUGCUACACAUCGUAUGUACCGAAUCGGAAAGGUUUUUGGAAAGGAAAGUAUUAUGUUACGCCGUUCGGAUCUGCACUUCCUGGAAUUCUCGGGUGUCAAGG", "log2 enrichment": -0.311}
{"Oligonucleotide": "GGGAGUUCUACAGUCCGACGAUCUGUGCUACACAUCGUAUGUACCGAAUCGGGGUUUUUUUGGGGAAAAAAAGGGGUUUUUGGGGAAAGUAUUAUGUUACGCCGUUCGGAUCUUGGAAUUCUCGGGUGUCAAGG", "log2 enrichment": -1.71}
{"Oligonucleotide": "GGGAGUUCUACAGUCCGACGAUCUCCUGUGCUACACAUCGUAUGUACCGAAUCGGGGAAAAAGGGGUGGGGAAAAAAAGGGGAAAGUAUUAUGUUACGCCGUUCGGAUCUGCAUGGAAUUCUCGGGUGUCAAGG", "log2 enrichment": -1.67}
{"Oligonucleotide": "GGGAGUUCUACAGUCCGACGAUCAAGUCCUGUGCUACACAUCGUAUGUACCGAAUCAAACCCCCAAAUUUAAAUUUAAAAAAGUAUUAUGUUACGCCGUUCGGAUCUGCACUUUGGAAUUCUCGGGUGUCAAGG", "log2 enrichment": 0.988}
{"data": "Set 4", "target": "CCNE1, cyclin fold, Cln2 fusion (human)", "method": "yeast growth competition, sequencing", "sample": "yeast", "setting": "strong parent motif", "relative to": "not given", "reading": "higher = stronger binding", "starting sequence": "viral docking peptide; YKVKRRLVFGADD; partner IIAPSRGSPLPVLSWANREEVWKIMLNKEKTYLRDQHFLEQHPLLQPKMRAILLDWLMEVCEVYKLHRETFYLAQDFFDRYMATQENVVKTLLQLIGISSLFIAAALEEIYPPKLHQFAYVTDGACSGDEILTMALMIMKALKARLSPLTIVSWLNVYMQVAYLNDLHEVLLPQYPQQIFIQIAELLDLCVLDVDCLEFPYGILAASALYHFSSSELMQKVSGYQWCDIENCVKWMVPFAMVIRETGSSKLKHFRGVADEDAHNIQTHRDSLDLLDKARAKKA"}
{"Change": "YKVKRRLMFGADD [V8M]", "normalised enrichment score": 6.01}
{"Change": "YKSKRRLVFGADD [V3S]", "normalised enrichment score": 1.2}
{"Change": "YKVKRALVFGADD [R6A]", "normalised enrichment score": 2.89}
{"Change": "YKVKRKLVFGADD [R6K]", "normalised enrichment score": 5.96}
{"Change": "YKVKRRLVFGWDD [A11W]", "normalised enrichment score": 5.96}
{"Change": "YTVKRRLVFGADD [K2T]", "normalised enrichment score": 6.46}
{"Change": "YKVKRDLVFGADD [R6D]", "normalised enrichment score": 0.0796}
{"Change": "YGVKRRLVFGADD [K2G]", "normalised enrichment score": 6.65}
{"Change": "YKVKRRLDFGADD [V8D]", "normalised enrichment score": 7.13}
{"Change": "YKVKRRLVTGADD [F9T]", "normalised enrichment score": 0.617}
{"Change": "YKVKRRLVFGAKD [D12K]", "normalised enrichment score": 3.63}
{"Change": "YKVKRRRVFGADD [L7R]", "normalised enrichment score": 0.78}
{"Change": "YKVKRRLVEGADD [F9E]", "normalised enrichment score": 0.138}
{"Change": "YKVKRRLVFGNDD [A11N]", "normalised enrichment score": 6.36}
{"Change": "YKVKRELVFGADD [R6E]", "normalised enrichment score": 1.65}
{"Change": "YKVKRRLVFGHDD [A11H]", "normalised enrichment score": 6.19}
{"Change": "YKVMRRLVFGADD [K4M]", "normalised enrichment score": 1.94}
{"Change": "YKVKRRLVFGAWD [D12W]", "normalised enrichment score": 4.07}
{"Change": "YFVKRRLVFGADD [K2F]", "normalised enrichment score": 5.32}
{"Change": "YKVKRRLVLGADD [F9L]", "normalised enrichment score": 1.42}
{"Change": "YKVKRRQVFGADD [L7Q]", "normalised enrichment score": -0.0538}
{"Change": "YKVKARAVFGADD [R5A L7A]", "normalised enrichment score": 0.0808}
{"Change": "YKVIRRLVFGADD [K4I]", "normalised enrichment score": 3.05}
{"Change": "YKVKRRWVFGADD [L7W]", "normalised enrichment score": 0.42}
{"Change": "YKYKRRLVFGADD [V3Y]", "normalised enrichment score": 3.64}
{"data": "Set 5", "target": "vanadate, free oxyanion", "method": "microfluidic competitive inhibition", "sample": "in vitro, cell-free expressed", "concentration": "not given", "setting": "derived from inhibition constants, unchanged parent 676 nM", "reading": "lower = stronger binding", "starting sequence": "PafA, mature enzyme, eGFP fusion (Elizabethkingia meningoseptica, UniProt Q9KJX5); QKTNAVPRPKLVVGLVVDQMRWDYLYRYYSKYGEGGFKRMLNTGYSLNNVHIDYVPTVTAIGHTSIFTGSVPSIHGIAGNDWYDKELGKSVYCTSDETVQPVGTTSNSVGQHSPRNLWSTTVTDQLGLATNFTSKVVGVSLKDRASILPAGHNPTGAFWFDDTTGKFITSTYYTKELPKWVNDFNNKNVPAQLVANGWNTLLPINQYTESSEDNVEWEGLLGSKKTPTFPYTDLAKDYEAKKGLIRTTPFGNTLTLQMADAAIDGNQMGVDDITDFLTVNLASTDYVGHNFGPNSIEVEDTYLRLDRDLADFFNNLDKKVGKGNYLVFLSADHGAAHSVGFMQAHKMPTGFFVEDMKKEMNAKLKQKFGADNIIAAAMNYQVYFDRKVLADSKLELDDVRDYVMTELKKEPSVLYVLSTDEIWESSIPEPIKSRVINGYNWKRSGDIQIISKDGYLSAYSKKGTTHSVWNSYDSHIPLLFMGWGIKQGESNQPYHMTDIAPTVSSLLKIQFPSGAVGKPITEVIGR"}
{"Change": "Q257V", "oxyanion analog dissociation constant": "612 nM"}
{"Change": "D317G", "oxyanion analog dissociation constant": "1.26 µM"}
{"Change": "S65V", "oxyanion analog dissociation constant": "2.57 µM"}
{"Change": "T232V", "oxyanion analog dissociation constant": "1.64 µM"}
{"Change": "R21G", "oxyanion analog dissociation constant": "849 nM"}
{"data": "Further values, each from its own experiment"}
{"Compound": "COc1cc(-c2cn(C3CCc4c(F)cccc4N(CC(F)(F)F)C3=O)nn2)ccc1-n1cnc(C)c1 (stereo not shown)", "target": "Calcium-dependent protein kinase 1 (CDPK1, Plasmodium falciparum, UniProt P62344)", "test": "cell-free assay, competition with immobilised ligand", "conditions": "1 µM", "measurement": "remaining binding", "value": "100%"}
{"note": "For quick reference, copied from above (set 4):"}
{"Change": "YKVKRRLVFGAKD [D12K]", "normalised enrichment score": 3.63}
{"Change": "YKVKRRLDFGADD [V8D]", "normalised enrichment score": 7.13}
{"Change": "YKVKRDLVFGADD [R6D]", "normalised enrichment score": 0.0796}
{"Change": "YKVKRRWVFGADD [L7W]", "normalised enrichment score": 0.42}
{"Change": "YKVKRELVFGADD [R6E]", "normalised enrichment score": 1.65}
{"Change": "YKVKRALVFGADD [R6A]", "normalised enrichment score": 2.89}
{"Change": "YKVKRRLVFGNDD [A11N]", "normalised enrichment score": 6.36}
